Measurements gathered from unrelated publications.
Numbered parts are unrelated; each lists some results of a single study.

Block 1
Target: Fragile X messenger ribonucleoprotein 1, C-terminal low-complexity region (Fmr1, Mus musculus, UniProt P35922)
Technique: RNA Bind-n-Seq
Form: RNA
Matrix: in vitro
Concentration: 200 nM
Notes: whole 134-nt RNA, ends assumed
With: 150 mM LiCl
Baseline: input library
Direction: higher = stronger binding
Quantity: log2 enrichment
All molecules: 7-deaza-guanosine replaces G
Shared flanks, not repeated: GGGAGUUCUACAGUCCGACGAUC … UGGAAUUCUCGGGUGUCAAGG
AAGUCCUGUGCUACACAUCGUAUGUACCGAAUCGGGUUUUUGGGAGGGUUUUUGGGAAAGUAUUAUGUUACGCCGUUCGGAUCUGCACUU: -1.24
UUUCUGUGUGCUUAGGUGCCCGAGCUACUGAGGGUCUAAGUCCGGGCAGCCGAAGAGUGUGGUAGGUAACGGUCCUCAGCGCAAGGGUCA: 0.48
CCUGUGCUACACAUCGUAUGUACCGAAUCGGGGAAAGGGGUUUUUUUGGGGAAAAAGGGGAAAGUAUUAUGUUACGCCGUUCGGAUCUGC: -0.666
UCCUGUGCUACACAUCGUAUGUACCGAAUCGGGGUUUUUUUGGGGUUUUUGGGGUGGGGAAAGUAUUAUGUUACGCCGUUCGGAUCUGCA: -0.502
GUCCUGUGCUACACAUCGUAUGUACCGAAUCGGGAAAAAAAGGGUUUGGGAAAAAGGGAAAGUAUUAUGUUACGCCGUUCGGAUCUGCAC: -2.34
CCUGUGCUACACAUCGUAUGUACCGAAUCAAAUUUUUUUAAAUUUUUUUAAACCCCCAAAAAAGUAUUAUGUUACGCCGUUCGGAUCUGC: 0.0838
CUGUGCUACACAUCGUAUGUACCGAAUCGGGGUUUGGGGUUUUUUUGGGGAAAAAAAGGGGAAAGUAUUAUGUUACGCCGUUCGGAUCUG: -0.576
CAAGUCCUGUGCUACACAUCGUAUGUACCGAAUCGGGUUUGGUUUGGGUUUGGGGAAAGUAUUAUGUUACGCCGUUCGGAUCUGCACUUC: -1.19

Block 2
Target: Interferon regulatory factor 7, full length, phosphomimetic (IRF7, Homo sapiens, UniProt Q92985, residues 1-503, S471D/S472D/S475D/S476D/S477D/S483D/S484D/S487D)
UniProt Q92985, sequence (whole entry, unmodified, looked up): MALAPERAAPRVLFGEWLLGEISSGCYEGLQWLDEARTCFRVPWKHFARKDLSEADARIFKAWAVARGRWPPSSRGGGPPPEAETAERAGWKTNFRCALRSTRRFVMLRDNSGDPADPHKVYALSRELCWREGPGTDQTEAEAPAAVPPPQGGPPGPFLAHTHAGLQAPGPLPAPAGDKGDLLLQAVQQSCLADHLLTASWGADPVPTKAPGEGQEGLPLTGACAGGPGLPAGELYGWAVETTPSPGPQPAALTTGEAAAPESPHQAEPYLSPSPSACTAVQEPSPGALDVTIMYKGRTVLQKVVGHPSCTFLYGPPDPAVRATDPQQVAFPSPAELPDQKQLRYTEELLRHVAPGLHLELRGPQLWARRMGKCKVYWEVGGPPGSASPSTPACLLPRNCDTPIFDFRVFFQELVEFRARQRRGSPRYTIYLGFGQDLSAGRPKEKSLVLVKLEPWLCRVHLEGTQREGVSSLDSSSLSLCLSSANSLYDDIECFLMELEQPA
Technique: protein-binding microarray
Form: double-stranded DNA, one strand shown
Matrix: in vitro
Concentration: 2200 nM top
Notes: 60-bp whole probe
With: salmon DNA 0.4 mg/ml
Baseline: random background probes
Direction: higher = stronger binding
Quantity: fitted relative affinity
Shared flanks, not repeated: GCCTAGCAC … GTCTTGATTCGCTTGACGCTGCTG
TCACTCTTCTTGCATCTGACTGTGCTA: 1.74 z-score
TTAGGTCTCGGTATCGCTTAGTGCTAG: 0.796 z-score
CACGGTATCCTTTTCCTGACGTGCTAG: 1.53 z-score
TTTGGTATCGGTATCGGTTAGTGCTAG: 1.7 z-score
TTAGGTATCCGTATCCTTTAGTGCTAG: 1.01 z-score
AATGATTACATATATGTTGGTGTGCTA: 0.368 z-score
TTAGGACTGCTTATCTTTTAGTGCTAG: -0.00751 z-score
GACGGAATGGGGTTTCGGGACGTGCTA: 1.13 z-score
GACGAACTGGCGTATCGAGACGTGCTA: -0.544 z-score
TTAGGTTTCGCTTCCGGTTAGTGCTAG: 8.96 z-score
TTAGGACTAGGTCTCGGTTAGTGCTAG: -0.083 z-score
GACGGCCTGGGTTTCGGGACGTGCTAG: 0.705 z-score
CCCTAGTTGTGTCTTGCCATGTGCTAG: 1.18 z-score
TAGATATTATATCTGTGTTAGTGCTAG: 0.177 z-score
GACAAACTGGGGTATCGAGACGTGCTA: 0.147 z-score
TTTTTTTTTTTTTCTGATCCGTGCTAG: 2.62 z-score
TCAGTTTCCATTTTCAGACTGTGCTAG: 7.43 z-score
TTAGGACTGAGTTTCGATTAGTGCTAG: 3.68 z-score

Block 3
Target: Histone acetyltransferase KAT6A, winged helix 1, GST fusion (KAT6A, Homo sapiens, UniProt Q92794, residues 1-85)
Technique: protein binding microarray
Form: double-stranded DNA, one strand shown
Matrix: in vitro
Concentration: not given
Notes: 8-mer, flanks averaged, mean of 2 arrays, mostly near background
Baseline: not given
Direction: higher = stronger binding
Quantity: E-score
Target sequence (chain): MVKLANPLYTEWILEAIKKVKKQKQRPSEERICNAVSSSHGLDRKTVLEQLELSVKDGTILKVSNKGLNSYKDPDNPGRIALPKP
CTGTGAAC: -0.117
GAATCTGA: -0.175
CCTTGAGC: 0.00256
ATCTCATC: -0.137
AGCCGTCC: 0.34
AAATCTGA: -0.11
CTTGGTTC: -0.0347
GACGAGAC: -0.103
ACGTTTAG: -0.156
AGGGAGGA: -0.238
CAGGTGGA: -0.232
CACATGGG: -0.0974
ACCGCACT: 0.169
TAATAAGA: -0.0553
CTAAGTTA: -0.0667
GGGCTGTA: -0.147
GGACAACA: -0.18
CTCAGAGA: -0.0487
CAGACACC: -0.166
CTATCTAA: -0.0201
ACACAACT: -0.218
ACCTAGGG: -0.0553
GGACTGAC: 0.0345
ATTGCCGG: 0.351
TAATCATA: -0.17

Block 4
Target: Sal-like protein 4, full length isoform B (SALL4, Homo sapiens, UniProt Q9UJQ4-2, residues 1-616)
Technique: universal PBM
Form: double-stranded DNA, one strand shown
Matrix: in vitro
Concentration: not given
Notes: 8-mer, flanks averaged, mean of replicates
Direction: higher = stronger binding
Quantity: E-score
Target sequence (chain): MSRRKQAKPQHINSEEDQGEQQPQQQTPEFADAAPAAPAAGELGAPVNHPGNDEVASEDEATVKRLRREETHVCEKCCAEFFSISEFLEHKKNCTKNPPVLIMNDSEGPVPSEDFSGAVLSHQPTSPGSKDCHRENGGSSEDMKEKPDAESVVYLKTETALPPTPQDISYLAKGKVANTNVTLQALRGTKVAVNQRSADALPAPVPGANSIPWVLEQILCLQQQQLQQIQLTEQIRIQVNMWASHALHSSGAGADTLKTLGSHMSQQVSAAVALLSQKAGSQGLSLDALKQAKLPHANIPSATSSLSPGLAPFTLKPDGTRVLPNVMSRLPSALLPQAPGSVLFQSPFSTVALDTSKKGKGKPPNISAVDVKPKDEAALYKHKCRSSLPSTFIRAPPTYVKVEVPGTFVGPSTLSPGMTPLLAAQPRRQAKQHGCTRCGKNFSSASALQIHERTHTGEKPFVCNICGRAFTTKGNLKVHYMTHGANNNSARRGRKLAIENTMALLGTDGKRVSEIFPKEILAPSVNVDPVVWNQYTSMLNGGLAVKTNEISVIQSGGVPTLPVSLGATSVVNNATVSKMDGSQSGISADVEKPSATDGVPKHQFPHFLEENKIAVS
CTTGGAAC: -0.101
AATGCCAG: -0.034
CACGACGA: -0.0995
CAAACGTG: 0.0362
CACTTTGC: -0.00479
AGAACTCC: -0.095
GACTTCGA: -0.0146
TCCTTCCA: -0.00248
ACGAGTGC: -0.0694
AGGACCGC: -0.216
CGGCGAAC: -0.112
TGACGCCA: -0.151
GAAAGCTC: -0.295
CGCTTTGA: -0.045
GGACAGAC: -0.235
ATCCCGAG: -0.152
ATCTGGAC: -0.111
GACCGTAC: -0.211
GCTATTAA: 0.177
CCTTGCAC: -0.0957
ATTTGGAG: -0.0172

Repeated from above (block 4):
CTTGGAAC: -0.101
TCCTTCCA: -0.00248
CCTTGCAC: -0.0957
ATTTGGAG: -0.0172
